Published values from different studies.
Numbered parts are unrelated; each lists some results of a single study.

Series 1
Target: RING finger protein unkempt homolog, zinc fingers 1-6, GST-SBP tag (UNK, Homo sapiens, UniProt Q9C0B0, residues 30-357)
Technique: RNA Bind-n-Seq
Form: RNA
Sample: in vitro
Tested at: not given
Setting: RNA with constant flanks, human and mouse sites, ends assumed
Relative to: input RNA pool
Reading: higher = stronger binding
All sequences stand within: GGGAGUUCUACAGUCCGACGAUC … CAACAGAGGAUUGAGCAUCA
Construct (chain): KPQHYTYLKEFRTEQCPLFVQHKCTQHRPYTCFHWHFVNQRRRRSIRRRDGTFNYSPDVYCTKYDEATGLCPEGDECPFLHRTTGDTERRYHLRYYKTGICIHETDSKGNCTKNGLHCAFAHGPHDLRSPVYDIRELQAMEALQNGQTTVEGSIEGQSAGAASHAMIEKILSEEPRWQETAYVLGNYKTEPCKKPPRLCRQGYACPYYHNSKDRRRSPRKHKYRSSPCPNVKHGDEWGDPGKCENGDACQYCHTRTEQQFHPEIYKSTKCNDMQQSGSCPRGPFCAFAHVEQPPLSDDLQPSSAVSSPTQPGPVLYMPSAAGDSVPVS
| Strand | bound/input enrichment [ratio] |
| --- | --- |
| UAGGCCUGUGUUAUAUGUUAUAUUUAGCCUUUUUAUAUAUGACCCUUGAUCUGUUUGUAUUUGAACACUGUGUGUGUCCACUUUAAUACAUUUGUGCAGACAUGCACAUUACAUACGUGU | 13.6 |
| UUGCCGGCUGAAGAAGGAAAAACCUUGCUGGAACUUGUGAUUGAGCAGUUUGAAGACUUACUAGUUAGAAUUUUACUGCUGGCAGCAUGUAUAUCUUUCGUUUUGGCUUGGUUCGAGGAA | 0.591 |
| GAGUCAGCAUAUUUGAGAGGGCAGCGUUUUGCCAGUACCUAUCUUCUUUCUACAGAAGAUAGCUUUUUAAGAAAUAAGAGUUCCACAUUGAGUGGCUGUCAGACACAGAUUUCACUGUGA | 0.277 |
| CUGCUGUUUUUUGCUUUGGGAUUGCUUAUCCAUUUUGUGUUCUUCGCUUCCAUCUUUGACAUUUAUUUUACAUCUCCUUUGGUUCAUGGAAUGACUCCCCAGUUUACACCUUUGCCUCCU | 0.662 |
| UUAGCUCUCAUUGACUACCUGACACAGAAACGGAGCCAGUUGGUAAAGAAGCUGAAUGACUCGGAUCACCAGUCCAGCACCUCCCCGCUCAUGGAGGGCACUCCCACCAUCAAGUCCAAG | 0.086 |
| AUGUGGUAUCGUUUACGGUUAUUAAAACCCCAGCCAAAUAUUAUUCCUACAGUAAAGAAAAUAGUUCUGCUUGCAGGAUGGGCACUGUUCUUAUUUCUUGCAUACAAAGUUUCCAAAACA | 0.277 |
| CAGCUGCUUACACAGGAUGUAGAAAAAUUUUGUAACAGUGUAGUCGAUCUGUAUUCAAAUCUUAGUAAGCCAUUUUUAGACAUAGUUUUAUAUAUUUUCAAGUUAACAAGUGCAAUUGGA | 223 |
| UAUUCAUGCAGGGGCUGCCCCACGAGCUCAGGCAAGGCCCCCGUGGGCUUUGCGUAGUUCUAGUUCUUCAAUUUGGUUACUGCGCGAGUGUGUCCUGGAAGGAAUUUGUAUGGGAUUGUG | 0.299 |
| GGGCUGUGUAGAGUAGGGCCCUGUUCUCCUUAGGAUGUUGCUUCUUGAUUUUUUUUUUUUUUUAGGGGUGGGUCAGGGUUGUGACACACCAGCCCAGGUGAGAGCUGCUGCGGGUCACCU | 8.8 |
| GUUCCAGGAGAGACUCAAGGUGACAGUUACUUUACUGGAAAGAAAACUAUUGAAACAGUGAAAGCAGCUGAGAGGAUUAUGGAGGCUAUUGAGUUGUACCGAGAAGAAACUGCAAAAAUG | 0.269 |
| AGCACCAGCGCUGCCACUUGUACCCGCAGACAUUAUGAAAGAUUAAUCCUACCAUAUGAAAGAUUUAUUAAAGGAGAAGAAGAUAAGCCCCUGCCUCCAAUCAAACCUCGGAAACAGGAG | 0.416 |

Series 2
Target: Histone acetyltransferase KAT6A, both winged helices, GST fusion (KAT6A, Homo sapiens, UniProt Q92794, residues 1-181)
Technique: protein binding microarray
Form: double-stranded DNA, one strand shown
Sample: in vitro
Tested at: not given
Setting: 8-mer, flanks averaged, mean of 2 arrays, mostly near background
Relative to: not given
Reading: higher = stronger binding
Target sequence (chain): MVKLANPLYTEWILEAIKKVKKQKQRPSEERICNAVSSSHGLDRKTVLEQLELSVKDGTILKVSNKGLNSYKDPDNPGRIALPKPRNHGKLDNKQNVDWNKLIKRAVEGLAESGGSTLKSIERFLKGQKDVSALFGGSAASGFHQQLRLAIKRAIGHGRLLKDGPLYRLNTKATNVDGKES
| Strand | E-score |
| --- | --- |
| ACTTACAC | -0.0267 |
| CAGGGATA | -0.23 |
| GCGCGAAA | 0.231 |
| ACCTCGCG | 0.235 |
| AGGACCGG | 0.114 |
| ATCCACGG | 0.212 |
| ACTGTTTG | -0.0784 |
| CCATAACG | 0.0522 |
| ATGCCGCC | 0.295 |
| CGGATCGC | 0.193 |
| TAAGACAA | 0.00689 |
| ACAATGTC | -0.0227 |
| AGTCCACA | -0.0979 |
| TAAAGGCA | -0.193 |
| CCCCACTC | -0.263 |
| AAGAATCT | -0.175 |
| AGATTAAC | -0.0206 |
| GATCGAGA | -0.0607 |
| ACCTAAGG | -0.139 |
| ACTTAACC | -0.192 |

Series 3
Target: Interferon regulatory factor 7, full length, phosphomimetic (IRF7, Homo sapiens, UniProt Q92985, residues 1-503, S471D/S472D/S475D/S476D/S477D/S483D/S484D/S487D)
Technique: protein-binding microarray
Form: double-stranded DNA, one strand shown
Sample: in vitro
Tested at: 2200 nM top
Setting: 60-bp whole probe
With: salmon DNA 0.4 mg/ml
Relative to: random background probes
Reading: higher = stronger binding
All sequences stand within: GCCTAGCAC … GTCTTGATTCGCTTGACGCTGCTG
Target sequence (chain): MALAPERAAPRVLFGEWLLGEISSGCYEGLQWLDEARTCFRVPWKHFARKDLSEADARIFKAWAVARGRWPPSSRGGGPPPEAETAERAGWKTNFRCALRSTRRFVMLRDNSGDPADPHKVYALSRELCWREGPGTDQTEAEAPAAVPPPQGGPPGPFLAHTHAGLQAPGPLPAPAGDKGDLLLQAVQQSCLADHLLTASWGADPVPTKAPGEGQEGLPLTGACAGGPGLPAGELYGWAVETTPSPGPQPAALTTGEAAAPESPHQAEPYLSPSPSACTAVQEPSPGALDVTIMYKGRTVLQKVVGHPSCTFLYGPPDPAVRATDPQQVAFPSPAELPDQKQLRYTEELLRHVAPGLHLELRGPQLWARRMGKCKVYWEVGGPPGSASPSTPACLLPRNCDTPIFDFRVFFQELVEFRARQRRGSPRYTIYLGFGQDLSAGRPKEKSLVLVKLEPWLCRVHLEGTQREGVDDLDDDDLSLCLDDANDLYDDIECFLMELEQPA
| Strand | fitted relative affinity [z-score] |
| --- | --- |
| TTGGATCTCAGTTTCGATTAGTGCTAG | 5.91 |
| GACGATTTCGGGTTTCGGGACGTGCTA | 5.35 |
| TCAGGACTCGGGTCTCCCACTGTGCTA | 0.748 |
| TTAGATCTCAGTATCGATTAGTGCTAG | 0.105 |
| GACGGATTCGACACTGGGGACGTGCTA | 0.156 |
| TTGCTTTCCTTTATGTACTCGTGCTAG | 3.66 |
| TTAGGTATCCTTCTCCGTTAGTGCTAG | 1.06 |
| TCACATTTTGGTTTTCCACTGTGCTAG | 2.94 |
| TTAGATTGCGGGACTGGATTAGTGCTA | -0.444 |
| CTCCCCCTCAGATCTGCCGTCGTGCTA | -0.0143 |
| TCATTACTTTCTATCTCACTGTGCTAG | 4.26 |
| TTAGGTTTCGTTTTCGGTTAGTGCTAG | 15.4 |
| CCTTTTATGGTTTTTTTTTAGTGCTAG | 1.63 |
| TTAGGTTTCGGTTATCGGTTAGTGCTA | 7.75 |
| GACGTTATCAGACTGGAGACGTGCTAG | 0.0595 |
| GACGGTCTCGGTTGCGGGACGTGCTAG | 0.0979 |
| ACGTAGAAGGAAGAAGCACGGTGCTAG | -0.545 |
| GACGGACGGGGACTGGGGACGTGCTAG | -0.592 |
| GACGGTATCGGTTTCCGGACGTGCTAG | 2.75 |
| CTCGGTTTCCAAATTGTCTCGTGCTAG | 3.4 |
| ATAGGACTGCTTATCCTTTAGTGCTAG | 0.564 |
| TCAAGTCTGGGCTACAACACTGTGCTA | -0.802 |
| GACTGACTGCTACTGCTGACGTGCTAG | -0.0287 |
| GACGGAATGCTTCTCCTGACGTGCTAG | 0.72 |
| TTAGATTTCAGTCGCGATTAGTGCTAG | 0.335 |

Series 4
Target: UBE2U UBC core domain (UniProt Q5VVX9)
Technique: yeast two-hybrid
Sample: yeast
Setting: mostly zero background
Relative to: not given
Reading: higher = stronger interaction
B1: RFPL3 RING domain (UniProt O75679); chain MAALFQEASSCPVCSDYLEKPMSLECGCTVCLKCINSLQKEPHGEDLLCCCCSMVSQRNKIRP
B2: SHPRH RING domain (UniProt Q149N8); chain KTSGGVNPEPCPICARQLGKQWAVLTCGHCFCNECISIIIEQYSVGSHRSSIKCAICRQTTSHKEISY
B3: ARIH1 RING domain (UniProt Q9Y4X5); chain NTRSSAQDMPCQICYLNYPNSYFTGLECGHKFCMQCWSEYLTTKIMEEGMGQTISCPAHGCDILVDDNTVM
B4: TRIM28 RING domain (UniProt Q13263); chain GAEALELLEHCGVCRERLRPEREPRLLPCLHSACSACLGPAAPAAANSSGDGGAAGDGTVVDCPVCKQQCFSKDIVE
B5: MDM2 RING domain (UniProt Q00987); chain TQDKEESVESSLPLNAIEPCVICQGRPKNGCIVHGKTGHLMACFTCAKKLKKRNKPCPVCRQPIQMIVLTYFP
B6: RNF10 RING domain (UniProt Q8N5U6); chain VRICSHEVPSCPICLYPPTAAKITRCGHIFCWACILHYLSLSEKTWSKCPICYSSVHKKDLKS
B7: RMND5B RING domain (UniProt Q96G75); chain MKCWYHSVFACPILRQQTSDSNPPIKLICGHVISRDALNKLINGGKLKCPYCPMEQNPADGK
B8: RNF17 RING domain (UniProt Q9BXT8); chain SQPWGAAEIQCTRCGRRVSRSSGHHCELQCGHAFCELCLLMTEECTTIICPDCEVATAVNTRQR
B9: CBLL1 RING domain (UniProt Q75N03); chain GEKDDTPVHFCDKCGLPIKIYGRMIPCKHVFCYDCAILHEKKGDKMCPGCSDPVQRIEQCT
B10: RNF115 RING domain (UniProt Q9Y4L5); chain TQEQVDMGLECPVCKEDYTVEEEVRQLPCNHFFHSSCIVPWLELHDTCPVCRKSLNGEDSTR
Target sequence (chain): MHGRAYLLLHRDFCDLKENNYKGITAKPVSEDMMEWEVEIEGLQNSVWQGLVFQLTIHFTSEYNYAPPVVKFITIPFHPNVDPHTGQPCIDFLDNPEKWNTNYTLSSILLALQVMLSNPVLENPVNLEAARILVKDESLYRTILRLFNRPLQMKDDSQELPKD
| Sequence | lacZ reporter activity |
| --- | --- |
| B1 (RFPL3 RING domain) | 0 |
| MEEMEEELKCPVCGSFYREPIILPCSHNLCQACARNILVQTPESESPQSHRAAGSGVSDY (TRIM9 RING domain (UniProt Q9C026)) | 8230 |
| B2 (SHPRH RING domain) | 0 |
| B3 (ARIH1 RING domain) | 7440 |
| B4 (TRIM28 RING domain) | 2480 |
| B5 (MDM2 RING domain) | 17400 |
| B6 (RNF10 RING domain) | 0 |
| B7 (RMND5B RING domain) | 16800 |
| KITELNPHLMCALCGGYFIDATTIVECLHSFCKTCIVRYLETNKYCPMCDVQVHKTRPLL (PCGF2 RING domain (UniProt P35227)) | 17300 |
| EIKDYKARLTCPCCNMRKKDAVLTKCFHVFCFECVKTRYDTRQRKCPKCNAAFGANDFHR (RNF20 RING domain (UniProt Q5VTR2)) | 0 |
| B8 (RNF17 RING domain) | 15300 |
| B9 (CBLL1 RING domain) | 0 |
| B10 (RNF115 RING domain) | 0 |
| VPADASPDSKCPICLDRFDNVSYLDRCLHKFCFRCVQEWSKNKAECPLCKQPFDSIFHSV (TOPORS RING domain (UniProt Q9NS56)) | 16600 |

Excerpt of the above (series 3):
| Strand | fitted relative affinity [z-score] |
| --- | --- |
| TTAGGTTTCGGTTATCGGTTAGTGCTA | 7.75 |
| TTAGATTTCAGTCGCGATTAGTGCTAG | 0.335 |
| GACGATTTCGGGTTTCGGGACGTGCTA | 5.35 |
| TCACATTTTGGTTTTCCACTGTGCTAG | 2.94 |
| TTAGATTGCGGGACTGGATTAGTGCTA | -0.444 |
